Earlier results that unrelated publications cite.
Each line is one published result; not all experiments were run side by side. “And” joins repeats or separate records; there may be more than shown. ± marks the error that the study gave.
pufM QA site: Reaction center protein M chain, QA site (pufM, Cereibacter sphaeroides, UniProt P0C0Y9)
HTR1A: 5-hydroxytryptamine receptor 1A (HTR1A, Homo sapiens, UniProt P08908)
Sequence of UniProt P08908 (whole entry, looked up): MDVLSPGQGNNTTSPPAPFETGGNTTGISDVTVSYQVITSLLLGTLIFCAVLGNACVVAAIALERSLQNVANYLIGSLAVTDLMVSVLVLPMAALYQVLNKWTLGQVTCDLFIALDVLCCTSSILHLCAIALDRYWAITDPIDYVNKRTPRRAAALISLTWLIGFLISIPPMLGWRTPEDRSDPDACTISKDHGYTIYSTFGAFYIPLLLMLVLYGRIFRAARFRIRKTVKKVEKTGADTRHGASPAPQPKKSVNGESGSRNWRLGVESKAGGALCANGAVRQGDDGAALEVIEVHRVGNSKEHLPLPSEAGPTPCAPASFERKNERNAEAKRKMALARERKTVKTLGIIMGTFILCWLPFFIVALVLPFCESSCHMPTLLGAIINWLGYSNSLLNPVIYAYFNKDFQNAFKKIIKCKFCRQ
Sequence of UniProt Q02318 (whole entry, looked up): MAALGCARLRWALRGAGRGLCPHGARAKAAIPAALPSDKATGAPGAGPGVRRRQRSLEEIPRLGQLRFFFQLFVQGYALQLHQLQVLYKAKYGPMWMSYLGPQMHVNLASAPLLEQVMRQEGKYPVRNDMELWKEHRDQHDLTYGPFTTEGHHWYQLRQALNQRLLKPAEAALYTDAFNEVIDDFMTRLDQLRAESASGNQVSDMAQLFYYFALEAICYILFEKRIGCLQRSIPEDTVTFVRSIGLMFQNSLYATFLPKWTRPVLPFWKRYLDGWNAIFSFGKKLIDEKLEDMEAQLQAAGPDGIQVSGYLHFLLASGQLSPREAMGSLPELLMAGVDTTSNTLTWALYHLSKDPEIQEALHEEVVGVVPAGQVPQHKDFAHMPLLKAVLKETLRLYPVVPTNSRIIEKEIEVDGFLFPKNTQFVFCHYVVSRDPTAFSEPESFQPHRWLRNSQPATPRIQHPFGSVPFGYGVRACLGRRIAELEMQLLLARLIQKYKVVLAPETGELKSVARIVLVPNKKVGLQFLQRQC
Sequence of UniProt P08172 (whole entry, looked up): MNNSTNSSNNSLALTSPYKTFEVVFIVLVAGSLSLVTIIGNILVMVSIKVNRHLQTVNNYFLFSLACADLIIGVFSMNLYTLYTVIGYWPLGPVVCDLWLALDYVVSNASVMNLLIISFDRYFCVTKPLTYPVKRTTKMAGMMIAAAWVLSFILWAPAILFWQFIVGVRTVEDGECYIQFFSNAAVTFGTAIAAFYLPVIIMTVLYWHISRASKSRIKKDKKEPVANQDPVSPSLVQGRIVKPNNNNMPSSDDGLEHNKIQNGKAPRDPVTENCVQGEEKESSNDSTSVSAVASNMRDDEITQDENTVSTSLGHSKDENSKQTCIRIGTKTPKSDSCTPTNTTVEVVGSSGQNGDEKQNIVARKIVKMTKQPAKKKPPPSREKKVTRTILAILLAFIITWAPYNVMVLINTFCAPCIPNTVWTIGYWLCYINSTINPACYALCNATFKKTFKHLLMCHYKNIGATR
Sequence of UniProt Q08638 (whole entry, looked up): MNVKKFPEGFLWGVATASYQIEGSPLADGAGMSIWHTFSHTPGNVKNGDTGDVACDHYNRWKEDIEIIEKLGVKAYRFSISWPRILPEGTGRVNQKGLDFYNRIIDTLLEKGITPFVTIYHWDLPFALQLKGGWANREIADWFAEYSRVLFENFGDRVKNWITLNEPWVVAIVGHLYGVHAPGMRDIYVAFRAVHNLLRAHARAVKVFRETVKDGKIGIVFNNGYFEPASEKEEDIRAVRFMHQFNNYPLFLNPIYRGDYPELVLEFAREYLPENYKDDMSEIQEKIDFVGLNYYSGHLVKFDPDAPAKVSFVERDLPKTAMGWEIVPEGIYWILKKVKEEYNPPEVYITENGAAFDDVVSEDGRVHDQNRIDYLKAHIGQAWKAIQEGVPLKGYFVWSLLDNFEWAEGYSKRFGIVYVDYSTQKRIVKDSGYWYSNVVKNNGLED
Sequence of UniProt Q91XE4 (whole entry, looked up): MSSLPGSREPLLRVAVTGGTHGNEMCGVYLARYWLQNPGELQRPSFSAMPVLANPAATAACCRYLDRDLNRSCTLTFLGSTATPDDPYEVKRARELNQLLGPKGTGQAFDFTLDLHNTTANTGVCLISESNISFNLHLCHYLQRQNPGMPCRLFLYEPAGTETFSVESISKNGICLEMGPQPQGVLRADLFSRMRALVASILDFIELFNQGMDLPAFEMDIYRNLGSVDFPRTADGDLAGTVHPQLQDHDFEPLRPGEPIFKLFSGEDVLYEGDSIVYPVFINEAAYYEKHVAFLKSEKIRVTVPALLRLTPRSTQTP
Sequence of UniProt P36544 (whole entry, looked up): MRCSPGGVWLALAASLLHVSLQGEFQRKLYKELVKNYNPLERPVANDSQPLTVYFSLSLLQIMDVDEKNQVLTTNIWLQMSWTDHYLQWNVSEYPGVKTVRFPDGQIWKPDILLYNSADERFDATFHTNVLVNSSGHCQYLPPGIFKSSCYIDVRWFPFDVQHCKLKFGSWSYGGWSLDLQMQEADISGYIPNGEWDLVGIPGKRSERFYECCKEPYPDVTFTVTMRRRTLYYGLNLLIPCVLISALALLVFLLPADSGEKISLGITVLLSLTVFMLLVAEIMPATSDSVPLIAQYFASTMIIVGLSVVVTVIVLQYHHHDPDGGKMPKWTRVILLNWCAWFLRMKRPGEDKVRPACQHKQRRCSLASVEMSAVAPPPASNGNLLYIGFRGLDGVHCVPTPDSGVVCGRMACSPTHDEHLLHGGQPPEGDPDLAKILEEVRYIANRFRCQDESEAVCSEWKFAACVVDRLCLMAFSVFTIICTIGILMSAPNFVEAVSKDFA
Sequence of UniProt P14416 (whole entry, looked up): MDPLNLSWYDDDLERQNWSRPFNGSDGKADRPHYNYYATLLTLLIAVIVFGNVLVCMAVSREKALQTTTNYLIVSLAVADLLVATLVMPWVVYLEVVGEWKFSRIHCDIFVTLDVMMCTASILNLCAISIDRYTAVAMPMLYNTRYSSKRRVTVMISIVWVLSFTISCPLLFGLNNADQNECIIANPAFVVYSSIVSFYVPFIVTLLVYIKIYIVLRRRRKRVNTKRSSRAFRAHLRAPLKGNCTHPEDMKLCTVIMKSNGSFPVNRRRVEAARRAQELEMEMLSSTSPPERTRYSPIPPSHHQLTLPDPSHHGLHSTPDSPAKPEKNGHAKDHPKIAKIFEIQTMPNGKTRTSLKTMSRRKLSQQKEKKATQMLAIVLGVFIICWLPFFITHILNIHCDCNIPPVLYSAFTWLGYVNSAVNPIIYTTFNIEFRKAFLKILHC
Sequence of UniProt P25103 (whole entry, looked up): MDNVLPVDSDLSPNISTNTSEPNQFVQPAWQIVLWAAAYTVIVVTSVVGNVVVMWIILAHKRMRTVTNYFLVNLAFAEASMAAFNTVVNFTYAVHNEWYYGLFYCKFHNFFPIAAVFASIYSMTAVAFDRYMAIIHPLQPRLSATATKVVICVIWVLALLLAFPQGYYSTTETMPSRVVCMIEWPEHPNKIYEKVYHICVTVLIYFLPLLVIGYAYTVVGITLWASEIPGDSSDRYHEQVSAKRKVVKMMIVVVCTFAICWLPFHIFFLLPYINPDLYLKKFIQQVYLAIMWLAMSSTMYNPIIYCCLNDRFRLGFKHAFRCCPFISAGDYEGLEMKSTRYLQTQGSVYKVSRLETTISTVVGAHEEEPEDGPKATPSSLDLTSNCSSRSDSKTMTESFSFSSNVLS
Sequence of UniProt P35348 (whole entry, looked up): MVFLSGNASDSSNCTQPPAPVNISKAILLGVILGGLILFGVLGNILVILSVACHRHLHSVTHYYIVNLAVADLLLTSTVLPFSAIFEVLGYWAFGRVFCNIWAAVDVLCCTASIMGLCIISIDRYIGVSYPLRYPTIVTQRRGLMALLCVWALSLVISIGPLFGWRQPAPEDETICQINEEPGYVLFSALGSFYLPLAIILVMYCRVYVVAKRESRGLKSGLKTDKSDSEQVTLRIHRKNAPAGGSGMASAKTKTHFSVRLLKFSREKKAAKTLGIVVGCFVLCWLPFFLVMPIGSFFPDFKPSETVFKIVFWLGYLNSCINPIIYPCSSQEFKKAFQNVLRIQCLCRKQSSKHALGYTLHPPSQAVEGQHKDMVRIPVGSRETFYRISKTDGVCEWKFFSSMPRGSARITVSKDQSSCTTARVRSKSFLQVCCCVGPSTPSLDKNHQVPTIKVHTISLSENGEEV
Sequence of UniProt P0A6L2 (whole entry, looked up): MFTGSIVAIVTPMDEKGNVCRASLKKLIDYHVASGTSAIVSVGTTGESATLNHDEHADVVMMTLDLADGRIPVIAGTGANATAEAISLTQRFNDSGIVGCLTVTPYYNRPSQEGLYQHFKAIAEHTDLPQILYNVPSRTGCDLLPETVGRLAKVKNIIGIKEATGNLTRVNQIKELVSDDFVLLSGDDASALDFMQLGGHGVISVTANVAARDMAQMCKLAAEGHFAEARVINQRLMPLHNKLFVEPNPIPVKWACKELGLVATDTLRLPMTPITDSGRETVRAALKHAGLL
Sequence of UniProt P30411 (whole entry, looked up): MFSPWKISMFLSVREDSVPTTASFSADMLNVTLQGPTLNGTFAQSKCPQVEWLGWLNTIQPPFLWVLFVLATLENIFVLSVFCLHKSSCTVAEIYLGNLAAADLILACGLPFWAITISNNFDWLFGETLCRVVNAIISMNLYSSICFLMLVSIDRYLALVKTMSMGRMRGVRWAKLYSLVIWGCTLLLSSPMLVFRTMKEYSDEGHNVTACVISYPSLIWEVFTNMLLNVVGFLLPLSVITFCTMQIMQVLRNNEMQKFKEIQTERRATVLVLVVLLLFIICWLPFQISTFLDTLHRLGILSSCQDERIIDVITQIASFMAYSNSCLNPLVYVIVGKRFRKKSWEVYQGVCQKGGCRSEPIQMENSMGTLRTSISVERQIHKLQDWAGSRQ

Structure (SMILES) | tested on | test | system | conditions | measurement | result
FC(F)(F)C(F)(F)C(F)(F)C(F)(F)CCI | CYP3A4 | inhibitor |  | Tox21 screening | IC50 | inactive
Nc1c(Br)cccc1C(=O)C[C@H](N)C(=O)O | kynureninase (Pseudomonas fluorescens) | substrate |  |  | Km | 2000 µM
CC(=O)N1CC[C@@H](NC(=O)[C@@H](N)Cc2c(C)cc(O)cc2C)c2cc(Cc3ccccc3)ccc21 | Oprd1 (Rattus norvegicus, UniProt P33533) | agonist |  | concentration not given | DOR stimulation | 26 ± 3%
Nc1ncnc2c1ncn2[C@@H]1O[C@H](COP(=O)(O)OP(=O)(O)OP(=O)(O)O)[C@@H](O)[C@H]1O | dnaK (Escherichia coli, UniProt P0A6Y8, E213C/T22C) |  |  | concentration not given | maximum rate | ~60 s⁻¹
CCCCCOc1ccc(-c2ccc(-c3ccc(C(=O)N[C@H]4C[C@@H](O)[C@@H](O)NC(=O)[C@@H]5[C@@H](O)[C@@H](C)CN5C(=O)[C@H]([C@@H](C)O)NC(=O)[C@H]([C@H](O)[C@@H](O)c5ccc(O)cc5)NC(=O)[C@@H]5C[C@@H](O)CN5C(=O)[C@H]([C@@H](C)O)NC4=O)cc3)cc2)cc1 |  |  | human renal impairment severe | 50 mg single dose | volume of distribution | 39.6 ± 9.4 L
C[N+]1(C)CCC(OC(=O)C(c2ccccc2)c2ccccc2)CC1.[I-] | CHRM2 (Homo sapiens, UniProt P08172) |  |  |  | Hill coefficient | 1
C=C1CC[C@H](O)C/C1=C/C=C1\CCC[C@]2(C)[C@@H]([C@H](C)CCCC(C)C)CC[C@@H]12 | CYP27A1 (Homo sapiens, UniProt Q02318) | substrate |  |  | kcat | 0.035 s⁻¹
CC(=O)N[C@@H](CSC(Cl)=CCl)C(=O)O | N-acyl-aromatic-L-amino acid amidohydrolase (carboxylate-forming) (Acy3, Mus musculus, UniProt Q91XE4) | substrate |  | without Co2+ | kcat | 0.28 s⁻¹
CC1=C(C)C(=O)C(C)=C(C)C1=O | pufM QA site | P+HA− charge separation, delayed fluorescence |  |  | free energy change | -550 meV
O=C(CCCN1CCC2(CC1)C(=O)NCN2c1ccccc1)c1ccc(F)cc1 | DRD2 (Homo sapiens, UniProt P14416) | binding |  |  | Hill coefficient | 1
Nc1ccn([C@@H]2O[C@H](CO)[C@@H](O)[C@H]2O)c(=O)n1 | uncharacterized protein (Trichomonas vaginalis, UniProt A2EYV3) | substrate |  |  | kcat/Km | inactive
NC(N)=NCCC[C@H](NC(=O)[C@H](Cc1ccccc1)NC(=O)[C@@H]1CCCN1C(=O)[C@H](CO)NC(=O)[C@H](Cc1ccccc1)NC(=O)CNC(=O)[C@@H]1CCCN1C(=O)[C@@H]1CCCN1C(=O)[C@@H](N)CCCN=C(N)N)C(=O)O | BDKRB2 (Homo sapiens, UniProt P30411) |  |  |  | Hill coefficient | 1
CC(=O)C(=O)O | dapA (Escherichia coli K-12, UniProt P0A6L2) | substrate, coupled |  |  | Km | 260 ± 30 µM
Nc1ncnc2c1ncn2[C@@H]1O[C@H](CO)[C@@H](O)[C@H]1O | Adenosine/guanosine nucleoside ribohydrolase (Trichomonas vaginalis, UniProt A2EYV3) | substrate, 1H NMR |  |  | Km | 54 µM
O=C(O)[C@H](c1ccccc1)[C@H]1CCCCN1 |  |  | human, by CES1 genotype, plasma | oral, 10 mg methylphenidate, single dose, median | half-life | 8 h
CC1=C(C)C(=O)c2ccccc2C1=O | pufM QA site | P+HA− charge separation, delayed fluorescence |  |  | free energy change | -500 meV
COC(=O)[C@@H]1C[C@H](OC(C)=O)C(=O)[C@H]2[C@@]1(C)CC[C@H]1C(=O)O[C@H](c3ccoc3)C[C@]21C | kappa opioid receptor Y312A |  |  |  | Ki | 88.6 nM and 79 nM
Nc1ccccc1C(=O)C[C@H](N)C(=O)O | kynureninase (Pseudomonas fluorescens) | substrate |  |  | kcat | 6.9 s⁻¹
COc1cccc2c3c(=O)n(C4C5(C)CCC(C5)C4(C)C)ccc3n(CCN3CCOCC3)c12 (stereo not drawn) | CB2 receptor | binding |  |  | Ki | 1 nM
C[C@]12CC[C@H]3[C@@H](CCC4=CC(=O)CC[C@@]43C)[C@@H]1CC[C@@H]2O | aromatase human placental | substrate |  |  | Km | 0.041 µM
CN1C[C@H](CNC(=O)OCc2ccccc2)C[C@@H]2c3cccc4c3c(cn4C)C[C@H]21 | HTR1A |  |  |  | Hill coefficient | 0.9
Nc1ccccc1[C@H](O)C[C@H](N)C(=O)O | kynureninase (Pseudomonas fluorescens) | substrate |  |  | Km | 1.5 µM
O=S(=O)([O-])C(F)(F)C(F)(F)C(F)(F)C(F)(F)C(F)(F)C(F)(F)C(F)(F)C(F)(F)F.[Li+] | CYP2D6 | inhibitor |  | Tox21 screening | IC50 | inactive
O=C(O)/C(=C/c1c(C(=O)O)[nH]c2cc(Cl)cc(Cl)c12)c1ccccc1 | Grin1 (Rattus norvegicus, UniProt P35439) |  |  |  | Hill coefficient | 0.6
CN1CCc2[nH]c3ccccc3c2CC1.O=C(O)/C=C/C(=O)O | CHRNA7 (Homo sapiens, UniProt P36544) | inhibitor |  | with: 100 µM acetylcholine | Hill coefficient | 1.5 ± 0.1
CN1C[C@H](CNC(=O)OCc2ccccc2)C[C@@H]2c3cccc4c3c(cn4C)C[C@H]21 | HTR1A |  |  | historical reference value | Hill coefficient | 0.9
Ic1ccccc1CN[C@@H]1C2CCN(CC2)[C@@H]1C(c1ccccc1)c1ccccc1 (racemic) | TACR1 (Homo sapiens, UniProt P25103) |  |  |  | Hill coefficient | 1
O=[N+]([O-])c1ccc(O[C@@H]2O[C@H](CO)[C@@H](O)[C@H](O)[C@H]2O)c([N+](=O)[O-])c1 | bglA (Thermotoga maritima, UniProt Q08638) | substrate |  |  | kcat | 42 s⁻¹
COc1c(Br)c2c3c(c1OC)-c1cc4c(cc1C[C@@H]3N(C)CC2)OCO4 | ADRA1A (Homo sapiens, UniProt P35348) | antagonist |  |  | Ke | > 10 µM
Brc1ccc(Oc2ccc(Br)cc2Br)c(Br)c1 | H295R |  |  | concentration not given | aromatase reduction | no effect

For quick reference, copied from above:
Structure (SMILES) | tested on | test | system | conditions | measurement | result
COC(=O)[C@@H]1C[C@H](OC(C)=O)C(=O)[C@H]2[C@@]1(C)CC[C@H]1C(=O)O[C@H](c3ccoc3)C[C@]21C | kappa opioid receptor Y312A |  |  |  | Ki | 88.6 nM and 79 nM
Nc1ccccc1C(=O)C[C@H](N)C(=O)O | kynureninase (Pseudomonas fluorescens) | substrate |  |  | kcat | 6.9 s⁻¹
